# Published values collected from several papers.
# Numbered parts are unrelated; each lists some results of a single study. “And” joins repeats or separate records; there may be more than shown. Changes are numbered by the printed parent chain.

# Series 1
# Target: CCNB1, cyclin fold, Cln2 fusion (human)
# Method: yeast growth competition, sequencing
# Matrix: yeast
# Notes: strong parent motif
# Baseline: not given
# Direction: higher = stronger binding
# Starting sequence: viral docking peptide; YKVKRRLVFGADD; partner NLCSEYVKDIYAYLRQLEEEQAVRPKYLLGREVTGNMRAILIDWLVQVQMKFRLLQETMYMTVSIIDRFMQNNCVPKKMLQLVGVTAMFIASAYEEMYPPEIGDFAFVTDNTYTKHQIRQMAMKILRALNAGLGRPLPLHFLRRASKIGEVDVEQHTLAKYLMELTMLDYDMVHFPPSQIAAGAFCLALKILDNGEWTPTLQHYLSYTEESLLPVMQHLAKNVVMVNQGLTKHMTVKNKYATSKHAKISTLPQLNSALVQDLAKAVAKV
Change,normalised enrichment score
F9A,-0.236
V3R,0.395
R6G,0.421
K2Y,3.3
K2V,3.76
V8T,4.85
A11V,3.62
K4C,4.37

# Series 2
# Target: tungstate, free oxyanion
# Method: microfluidic competitive inhibition
# Matrix: in vitro, cell-free expressed
# Tested at: not given
# Notes: derived from inhibition constants, unchanged parent 2230 nM
# Direction: lower = stronger binding
# Starting sequence: PafA, mature enzyme, eGFP fusion (Elizabethkingia meningoseptica, UniProt Q9KJX5); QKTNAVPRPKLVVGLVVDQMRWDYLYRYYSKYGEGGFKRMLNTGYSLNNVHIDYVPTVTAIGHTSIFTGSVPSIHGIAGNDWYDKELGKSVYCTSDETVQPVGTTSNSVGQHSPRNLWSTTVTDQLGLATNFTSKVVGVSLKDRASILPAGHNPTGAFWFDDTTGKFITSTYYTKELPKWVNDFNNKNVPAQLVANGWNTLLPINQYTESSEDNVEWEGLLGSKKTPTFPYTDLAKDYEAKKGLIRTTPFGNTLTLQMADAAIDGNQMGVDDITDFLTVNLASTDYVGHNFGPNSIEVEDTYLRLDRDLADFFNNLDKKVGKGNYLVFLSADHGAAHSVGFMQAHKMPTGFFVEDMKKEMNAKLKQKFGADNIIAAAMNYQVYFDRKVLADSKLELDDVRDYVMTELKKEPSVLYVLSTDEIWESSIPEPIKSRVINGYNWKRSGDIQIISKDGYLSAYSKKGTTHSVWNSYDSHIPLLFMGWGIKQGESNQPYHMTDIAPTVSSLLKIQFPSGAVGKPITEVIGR
Change,oxyanion analog dissociation constant [nM]
T164V,2230
I520G,1140
T155G,2070
D161G,2750
K85V,2070
L407V,2280
P56V,1530
V523A,2200

# Series 3
# Target: UDP-N-acetylglucosamine--peptide N-acetylglucosaminyltransferase 110 kDa subunit (OGT, Homo sapiens, UniProt O15294)
# UniProt O15294, sequence (whole entry, looked up): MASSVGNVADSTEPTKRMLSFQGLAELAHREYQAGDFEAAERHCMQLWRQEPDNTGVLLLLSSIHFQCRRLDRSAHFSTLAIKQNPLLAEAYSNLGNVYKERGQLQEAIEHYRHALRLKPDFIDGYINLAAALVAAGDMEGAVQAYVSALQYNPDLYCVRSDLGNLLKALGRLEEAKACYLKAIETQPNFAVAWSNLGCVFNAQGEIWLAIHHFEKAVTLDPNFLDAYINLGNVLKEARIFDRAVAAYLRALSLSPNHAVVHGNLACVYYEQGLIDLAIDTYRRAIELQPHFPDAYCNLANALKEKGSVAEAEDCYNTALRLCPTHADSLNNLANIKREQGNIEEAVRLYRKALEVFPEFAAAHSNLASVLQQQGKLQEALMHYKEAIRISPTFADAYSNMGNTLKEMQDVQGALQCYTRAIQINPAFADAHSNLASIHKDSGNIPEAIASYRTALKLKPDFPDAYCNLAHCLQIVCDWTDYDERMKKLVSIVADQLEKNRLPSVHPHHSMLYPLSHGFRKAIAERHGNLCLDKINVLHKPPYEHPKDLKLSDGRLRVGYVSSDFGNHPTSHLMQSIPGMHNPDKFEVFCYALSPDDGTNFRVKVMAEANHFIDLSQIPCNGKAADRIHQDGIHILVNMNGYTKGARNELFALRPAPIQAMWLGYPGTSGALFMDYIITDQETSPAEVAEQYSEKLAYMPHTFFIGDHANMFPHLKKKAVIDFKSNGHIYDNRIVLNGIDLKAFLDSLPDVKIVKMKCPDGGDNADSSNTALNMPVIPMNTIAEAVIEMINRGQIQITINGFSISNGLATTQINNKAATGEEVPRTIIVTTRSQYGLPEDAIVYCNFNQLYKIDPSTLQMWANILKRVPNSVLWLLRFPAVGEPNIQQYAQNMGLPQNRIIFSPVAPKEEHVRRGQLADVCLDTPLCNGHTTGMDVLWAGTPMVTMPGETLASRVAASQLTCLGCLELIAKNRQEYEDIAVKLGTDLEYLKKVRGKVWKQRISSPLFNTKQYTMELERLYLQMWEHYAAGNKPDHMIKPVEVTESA
# Observed: binding
# Method: phage display NGS
# Molecule type: peptide
# Tested at: concentration not given
# Notes: panning round 2
# Baseline: input library
Sequence,enrichment fold change
YPHHDGHSHSYEPFH,4.24
AFSPQYQIFVGQTYM,4.12
HYERHQSHPWEEFMH,6.22
HTYEQHWTHEIWHLA,4.91
MWFPPVYSIQYDLI,11.1
VVESMFMPEYQIVPV,8.29
HNRHMHQHSHYMADT,6.1
QPYQHNFYHWHAQPS,5.33

# Single results of other studies
Structure (SMILES),organism,test,test system,setting,quantity,value
CNC(=O)c1ccc(-c2cnn3ccc(C(=O)N(C)c4ccc(Cl)c(C(=O)OC)c4)cc23)cc1,Cryptosporidium parvum,qPCR,"IFN-γ knockout mouse, faeces","3 mg/kg, day 3 post treatment",faecal oocyst shedding,5.97 log oocysts/g faeces and 5.86 log oocysts/g faeces and 5.64 log oocysts/g faeces

# Some of these lines once more (series 2):
Change,oxyanion analog dissociation constant [nM]
P56V,1530
I520G,1140
T164V,2230
